Results gathered from unrelated publications.
Protocols differ between the studies behind these lines. ± gives the spread as reported.
cas9: CRISPR-associated endonuclease Cas9/Csn1 (cas9, Streptococcus pyogenes serotype M1, UniProt Q99ZW2)

| Structure (SMILES) | target | test | test system | setting | IC50 [nM] |
| --- | --- | --- | --- | --- | --- |
| Cc1ccc(C(=O)Nc2ccc(S(=O)(=O)O)c3cc(S(=O)(=O)O)cc(S(=O)(=O)O)c23)cc1NC(=O)c1cccc(NC(=O)Nc2cccc(C(=O)Nc3cc(C(=O)Nc4ccc(S(=O)(=O)O)c5cc(S(=O)(=O)O)cc(S(=O)(=O)O)c45)ccc3C)c2)c1 | cas9 | circular plasmid substrate | Streptococcus pyogenes | – | 50000 to 100000 |
| Cc1nccn1CC1CCc2c(c3ccccc3n2C)C1=O (centres unmarked) | Htr3a (Mus musculus, UniProt P23979, W183X) | – | – | – | 590 ± 80 |
| O=c1c2cc(Cl)ccc2[nH]c(=S)n1Cc1cccnc1 | Potassium voltage-gated channel subfamily KQT member 1, with KCNE1 (KCNQ1, Homo sapiens, UniProt P51787) | KCNQ1/minK current, inhibitor, manual patch clamp | CHO cells | – | 360 |
| CCC(C(=O)Nc1cc(NC2CNC2)ccc1C)n1cccc2nc(SCc3ccc(F)cc3)nc1-2 (centres unmarked) | CAPN1 (Homo sapiens, UniProt P07384) | enzyme activity | – | – | > 100000 |
| COc1cc(Nc2ncc(F)c(Nc3ccc4c(n3)NC(=O)C(C)(C)O4)n2)cc(OC)c1OC | Interleukin-6 receptor subunit alpha (IL6R, Homo sapiens, UniProt P08887) | – | – | – | > 10000 |
| COc1ccc(S(=O)(=O)Oc2ccc3c(c2)Oc2nc4c(c(N)c2C3c2cccc([N+](=O)[O-])c2)CCCC4)cc1 (centres unmarked) | ACHE (Homo sapiens, UniProt P22303) | enzyme activity, inhibitor | – | – | 1540 |
| C=CCSSCC=C | uncharacterized protein (Bradysia odoriphaga, UniProt A0A2S0X9G4) | binding, competitive fluorescence displacement | – | pH 7.4 | 10000 |
| O=C(NCc1ccc(F)cc1)c1cccc(Nc2ccc(-c3ccccc3)nn2)c1 | Anoctamin-6 (ANO6, Homo sapiens, UniProt Q4KMQ2) | anion channel activity, inhibitor, YFP fluorescence quenching | FRT cells expressing ANO6 | – | 91 ± 11 |
| CC(C)C[C@H](NC(=O)OCc1ccccc1)C(=O)N[C@@H](CC1CCNC1=O)C(O)S(=O)(=O)O (some centres unmarked) | Procathepsin L (CTSL, Homo sapiens, UniProt P07711) | enzyme activity, inhibitor | – | – | 0.33 |
| C[n+]1c2cc(N)ccc2cc2ccc(N)cc21 | cas9 | linear substrate | Streptococcus pyogenes | – | 10000 to 20000 |
| CNCCC(Oc1ccc(C(F)(F)F)cc1)c1ccccc1 (centres unmarked) | Neuronal acetylcholine receptor; alpha9/alpha10 (Homo sapiens, UniProt Q9GZZ6+Q9UGM1) | inhibitor | – | – | 820 ± 250 |
| C[C@H]1CN(c2n[nH]c3nc(N[C@H]4CC[C@H](NS(=O)(=O)CCC(F)(F)F)CC4)ncc23)CCO1 | TP53RK (Homo sapiens, UniProt Q96S44) | biochemical | – | – | ≥ 20000 |
| CCN1CCN(Cc2ccc(Nc3nc4ccc(Oc5ccnc(N)c5)cc4n3C)cc2C(F)(F)F)CC1 | Protein kinase 6 (Plasmodium falciparum, UniProt Q8IDW1) | enzyme activity, inhibitor | – | – | > 50000 |
| CC(C)C[C@H](NC(=O)[C@@H](N)CCC(=O)O)C(=O)N1CCC[C@H]1C(=O)N[C@@H](CC(=O)O)C(=O)N[C@@H](CCC(=O)O)C(=O)N[C@@H](Cc1ccccc1)C(=O)N[C@H](C(=O)N[C@H](C(=O)N[C@H](C(=O)O)C(C)C)C(C)C)C(C)C | HLA class I histocompatibility antigen, B alpha chain, allele B*18:01 (Homo sapiens, UniProt P01889) | peptide-MHC binding, radioligand competition binding | – | – | > 70000 |
